# Experimental data gathered from unrelated publications.
# Lines come from different studies, so protocols differ. Numbers after ± are the reported error.
# Matrix: plasma
SMILES,assay,test system,conditions,how to read,measurement,result
CCCCOCCOc1ccc(-c2ccc3c(c2)/C=C(/C(=O)Nc2ccc([S@@+]([O-])Cc4cncn4CCC)cc2)CCCN3CC(C)C)cc1,,moderate hepatic impairment patients,"150 mg, day 1, single dose, geometric mean",,apparent clearance CL/F,25.8 L/h
N#Cc1ccc(Nc2nc(N)cc(Oc3c(F)cc(-c4ccc(C#N)cc4)cc3F)n2)cc1,,Sprague-Dawley rat,"oral, 5 mg/kg",,apparent clearance,815 ± 106 mL/min/kg
Cc1nc(-c2cnc(NC(C)C)n(C)c2=O)ccc1Oc1ccnc(-c2cnn(C)c2)c1,,"Sprague-Dawley rat, male","oral, 10 mg/kg",,apparent clearance,0.667 mL/min/kg
O=C(O)c1cc(O)c(O)c(O)c1,,rat,"oral, 1000 mg/kg extract",,apparent oral clearance,144 ± 18.2 L/h
COc1cc2nccc(Oc3ccc(NC(=O)NC4CC4)c(Cl)c3)c2cc1C(N)=O,UPLC-MS/MS,"Sprague-Dawley rat, male","oral, 10 mg/kg, without azole co-treatment",,apparent volume Vz/F,11.4 ± 4.03 L/kg
O=c1oc2c(O)c(O)cc3c(=O)oc4c(O)c(O)cc1c4c23,,rat,"oral, 500 mg/kg extract",,apparent oral clearance,33.4 ± 3.1 L/h
N=C(N)NCCNC(=O)C1(Nc2ccccc2)CCN(Cc2ccccc2)CC1,,"Sprague-Dawley rats, both sexes","oral, 50 mg/kg, mean of both sexes",,apparent volume of distribution,0.3 L
C1=C/COCc2cc(ccc2OCCN2CCCC2)Nc2nccc(n2)-c2cccc(c2)COC/1,,"Sprague-Dawley rats, male","oral, dose not given, added: voriconazole",reference: vehicle control,apparent volume of distribution,19 % decrease

# For quick reference, copied from above:
SMILES,assay,test system,conditions,how to read,measurement,result
Cc1nc(-c2cnc(NC(C)C)n(C)c2=O)ccc1Oc1ccnc(-c2cnn(C)c2)c1,,"Sprague-Dawley rat, male","oral, 10 mg/kg",,apparent clearance,0.667 mL/min/kg
